Published values pooled from the literature.
A part holds a random share of what one study measured. Changes are numbered by the printed parent chain.

Sample 1
Target: Centromere-binding protein 1, full length, N-terminal tag (CBF1, Saccharomyces cerevisiae, UniProt P17106, residues 1-351)
Sequence of UniProt P17106 (whole entry, looked up): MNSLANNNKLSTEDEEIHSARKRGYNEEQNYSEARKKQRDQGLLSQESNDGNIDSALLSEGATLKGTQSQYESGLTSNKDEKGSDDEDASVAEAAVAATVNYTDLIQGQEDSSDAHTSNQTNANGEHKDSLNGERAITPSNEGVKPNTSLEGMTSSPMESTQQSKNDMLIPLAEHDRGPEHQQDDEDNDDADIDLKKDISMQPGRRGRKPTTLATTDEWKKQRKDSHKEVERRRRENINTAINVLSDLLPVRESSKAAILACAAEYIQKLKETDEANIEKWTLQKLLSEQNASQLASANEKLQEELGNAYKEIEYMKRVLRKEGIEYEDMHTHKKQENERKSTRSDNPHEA
Technique: protein-binding microarray
Molecule type: double-stranded DNA, one strand shown
Medium: in vitro
Tested at: 0.8 µM
Notes: whole 60-bp probe, no competitor
Reading: higher = stronger binding
Oligonucleotide | fluorescence intensity [a.u.]
CTATAAAACGAAGCCATCGTGCACAATGGTAAGTTCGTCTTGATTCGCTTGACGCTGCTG | 515
GAAACAAAAACAAATTACATCAGGAACCTTATTTAGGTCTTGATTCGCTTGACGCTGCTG | 529
CTACTCGGTGAAAATCACGAAAAACTTGACACTTTCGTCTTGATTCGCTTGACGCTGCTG | 511
GAAGGCGCCAAACAAAACGTGGACTGTGACAAATAGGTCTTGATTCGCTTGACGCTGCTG | 580
CTAAACTACCAATCTCGTGAGATTTTTCATAAGTTCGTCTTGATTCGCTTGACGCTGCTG | 584
CTAACTTGGCTCCACCAGCTGATGTGTGCATTTTTCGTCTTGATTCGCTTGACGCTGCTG | 574
CTATTTGCTGTTGATCACGTGATTCATAATTTTTTCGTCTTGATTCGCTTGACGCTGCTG | 48300
CTAAGTTCATCATTTCACGTGTGCAGCATAGTGTTCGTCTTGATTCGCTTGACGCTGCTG | 2390
CTAAAGGCTGGTGAACGCCTGATGCGAGCTATATTCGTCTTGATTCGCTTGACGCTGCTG | 509
GAAATTAATCCGGGTGACGCAGCCTGGAATTTTTAGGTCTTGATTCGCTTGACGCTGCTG | 511
GAAATTATTCATCCGCACGTGGCTGCACACGTGTAGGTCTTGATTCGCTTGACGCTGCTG | 10100
CTATAAAGTGAGGCTCACCTGGTCATTTAACACTTCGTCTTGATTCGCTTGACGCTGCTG | 598
GAATGAAGTATTGCCCACGTTCGAAATATAAATTAGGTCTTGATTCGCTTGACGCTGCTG | 571

Sample 2
Target: RING finger protein unkempt homolog, zinc fingers 1-6, GST-SBP tag (UNK, Homo sapiens, UniProt Q9C0B0, residues 30-357)
Sequence of UniProt Q9C0B0 (30-357, looked up): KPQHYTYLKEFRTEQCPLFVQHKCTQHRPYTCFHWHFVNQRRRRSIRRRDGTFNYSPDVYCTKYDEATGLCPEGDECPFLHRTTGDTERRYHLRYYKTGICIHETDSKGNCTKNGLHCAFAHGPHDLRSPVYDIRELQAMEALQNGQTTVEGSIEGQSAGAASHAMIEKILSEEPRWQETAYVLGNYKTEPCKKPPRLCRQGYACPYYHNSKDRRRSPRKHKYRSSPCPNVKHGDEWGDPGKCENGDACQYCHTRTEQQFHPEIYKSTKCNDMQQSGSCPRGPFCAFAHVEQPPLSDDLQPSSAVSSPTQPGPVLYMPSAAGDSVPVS
Technique: RNA Bind-n-Seq
Molecule type: RNA
Medium: in vitro
Tested at: not given
Notes: RNA with constant flanks, ends assumed
Baseline: input RNA pool
Reading: higher = stronger binding
Oligonucleotide | bound/input enrichment
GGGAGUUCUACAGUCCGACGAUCGGAAGUAAUCCUACAUCAGCCUCUGAUGAUUCCAAUGGGCUGGAGUGGGAAAAUGAUUUUGUCCGUGCCGAAAUGGAUGAUAAUGGAAAUUCCGAGUAUUCUGGAUUUGUAAAUCCUGUACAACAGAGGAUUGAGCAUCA | 0.113 ratio
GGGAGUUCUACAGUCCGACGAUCAACUUACAGCCUCUUUCUGAAAGGCUGACACUUCUUGCCAUUUUCAUAUCAACUUUUCUCUUCCGUCUGACAUGGCAAUUUAAUCAAUUUAUGAUGCUGAUGCAAGCAUUAGUGCUGUUCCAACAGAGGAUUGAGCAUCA | 0.901 ratio
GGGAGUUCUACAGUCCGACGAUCUUGCUAGGAAAAAUUACAGCUUUGCAAUAUAACAACUGUUUUUGGAUAUUUCUGAAUGUACCCGAACAAAUAAUCAGUCUGUUUUUAAUGAAUCUAUUUGUAUUUUCCCAAUCAUUCCCUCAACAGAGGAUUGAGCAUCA | 0.207 ratio
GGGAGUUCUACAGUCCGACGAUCGAAAUAACAAGUCUUGAUACAGAGAAUAUAGAUGAAAUUUUAAACAAUGCUGAUGUUGCUUCCGUAAAUUUUUAUGCUGACUGGUGUCGUUUCAGUCAGAUGUUGCAUCCAAUUUUUGAGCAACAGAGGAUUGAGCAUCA | 9.86 ratio
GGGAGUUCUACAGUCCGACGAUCGAGAGCUUUAUUACCAGACAUGACCUUUCCGGAAAGGUUGUCAAUAUAGAUACAAACUCACUCCGAUCUUCCAUGAGGCCUGGCUUUGAAGACAUAAUCCGAAGAUGUAUCCAGAGGUUCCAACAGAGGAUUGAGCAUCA | 0.199 ratio
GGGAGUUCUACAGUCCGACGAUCGCGCCCCCCGGGCGCCCCGAUGUUUUUCCUCCUCCCCUCAGCUCUGAGCAUAAUGGGCAGGCCGCUGAGGACGCAGUGUCCCGGCCAAAGGAUGACGGCGUACCAGAGGUCCGAGCUGCUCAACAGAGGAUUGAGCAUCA | 0.106 ratio

Sample 3
Target: Interferon regulatory factor 3, full length, phosphomimetic (IRF3, Homo sapiens, UniProt Q14653, residues 1-427, S386D/S396D/S398D/S402D/T404D/S405D)
Technique: protein-binding microarray
Molecule type: double-stranded DNA, one strand shown
Medium: in vitro
Tested at: 2540 nM top
Notes: 60-bp whole probe
Together with: salmon DNA 0.4 mg/ml
Baseline: random background probes
Reading: higher = stronger binding
Constant ends, left off below: GCCTAGCAC … GTCTTGATTCGCTTGACGCTGCTG
Target sequence (chain): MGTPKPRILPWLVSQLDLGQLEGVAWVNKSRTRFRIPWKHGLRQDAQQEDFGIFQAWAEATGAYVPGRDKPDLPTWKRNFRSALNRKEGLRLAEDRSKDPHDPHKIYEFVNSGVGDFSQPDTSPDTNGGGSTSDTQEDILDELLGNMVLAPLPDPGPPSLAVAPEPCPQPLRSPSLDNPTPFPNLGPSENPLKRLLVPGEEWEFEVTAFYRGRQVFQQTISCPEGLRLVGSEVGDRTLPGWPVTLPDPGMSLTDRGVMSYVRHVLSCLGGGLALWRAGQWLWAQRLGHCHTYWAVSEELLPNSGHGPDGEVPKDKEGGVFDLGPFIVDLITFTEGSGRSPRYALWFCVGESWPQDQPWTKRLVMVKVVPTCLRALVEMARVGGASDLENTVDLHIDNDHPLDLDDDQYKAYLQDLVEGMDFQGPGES
Oligonucleotide | fitted relative affinity
TGAGATTTCAGTTTCGATTAGTGCTAG | 5.82 z-score
TTAGGTTTCGGTATCGGGTAGTGCTAG | 7.98 z-score
TAAGGACTGGGGTATCGGTTAGTGCTA | 0.0517 z-score
GACGGTTTCGGTATCAGGACGTGCTAG | 8.25 z-score
TCACCAATGGTCTTTCCAACTGTGCTA | 0.0552 z-score
TTAGGTTTCGCCACTGGGTTAGTGCTA | 2.08 z-score
GTCGGTATCGGTCTCGGGACGTGCTAG | 5.88 z-score
GACGGTCTCCTTGTCCTGACGTGCTAG | 1.2 z-score
GACGGTTTCGGTTCCCGGACGTGCTAG | 9.42 z-score
TTAGGTATCCTACTGCGTTAGTGCTAG | 2.41 z-score
TCACCTTAGGTTTTCTGACTGTGCTAG | 0.575 z-score
TCCTGTGTCTTAAATAGGGCAGTGCTA | 0.139 z-score
GACGGTTTCGGGACTGGGGCCGTGCTA | 4.7 z-score
TTTCAGCTGTTTTTCTCACCGTGCTAG | 1.63 z-score
TTAAGTTTCGACTTTCGGTTAGTGCTA | 4.46 z-score
TTAGAACTCGGGTTTCGATTAGTGCTA | 1.53 z-score
TTAGGTTTCCTTATCCGTTAGTGCTAG | 7.83 z-score

Sample 4
Target: Ras GTPase-activating protein-binding protein 1, full length (G3BP1, Homo sapiens, UniProt Q13283)
Sequence of UniProt Q13283 (whole entry, looked up): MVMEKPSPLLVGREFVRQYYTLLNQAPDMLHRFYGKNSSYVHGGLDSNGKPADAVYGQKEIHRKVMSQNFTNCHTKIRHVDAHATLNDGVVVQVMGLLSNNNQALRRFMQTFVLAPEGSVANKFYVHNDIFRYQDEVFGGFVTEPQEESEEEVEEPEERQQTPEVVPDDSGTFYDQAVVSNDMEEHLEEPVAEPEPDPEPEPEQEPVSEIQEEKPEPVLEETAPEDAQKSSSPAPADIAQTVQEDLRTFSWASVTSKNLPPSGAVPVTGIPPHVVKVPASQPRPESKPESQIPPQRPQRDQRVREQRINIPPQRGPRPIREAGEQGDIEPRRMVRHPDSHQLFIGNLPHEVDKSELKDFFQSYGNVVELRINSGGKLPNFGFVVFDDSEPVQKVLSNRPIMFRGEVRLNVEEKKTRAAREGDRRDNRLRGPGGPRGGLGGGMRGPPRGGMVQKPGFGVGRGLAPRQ
Technique: RNA Bind-n-Seq
Molecule type: RNA
Medium: in vitro
Tested at: 200 nM
Notes: whole 134-nt RNA, ends assumed
Together with: 150 mM LiCl
Baseline: input library
Reading: higher = stronger binding
Each molecule: 7-deaza-guanosine replaces G
Oligonucleotide | log2 enrichment
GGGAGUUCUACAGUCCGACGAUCCAAGUCCUGUGCUACACAUCGUAUGUACCGAAUCGGGCCGGGGCCGGGGCCGGGGAAAGUAUUAUGUUACGCCGUUCGGAUCUGCACUUCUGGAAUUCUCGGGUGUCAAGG | -0.193
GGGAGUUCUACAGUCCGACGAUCUGGCCCUGGUGGCAUGCGGGGAGGAAGAGGUGGCCUCAUGGAUCGUGGUGGUCCCGGUGGAAUUUUCAGAGGUGGCCGUGGUGGAGACAGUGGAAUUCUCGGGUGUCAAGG | 0.379
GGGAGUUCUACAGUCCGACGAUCGCAGGAAGUAAAAACAAAUGGACAUGCUUCGGAUAGUGGCAGGGGUGGGGGUUGCUAAGGAAAGGGUGGGAUGGGAGUGGGUAAAGAGUUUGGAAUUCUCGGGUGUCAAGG | 0.265
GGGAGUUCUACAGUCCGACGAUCCUGUGCUACACAUCGUAUGUACCGAAUCGGGAAAAAAAGGGGAAAAAAAGGAAAAAAAGGGGAAAGUAUUAUGUUACGCCGUUCGGAUCUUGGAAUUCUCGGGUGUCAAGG | 0.223
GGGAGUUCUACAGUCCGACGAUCGAAAGAAGUAAAAACAAAUGGAAAUGCUUCGGAUAGUGGCAGGGGUGGGGGUUGCUAAGGAAAGGGUGGGAUGGGAGUGGGUAAAGAGUUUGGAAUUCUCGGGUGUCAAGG | -0.383
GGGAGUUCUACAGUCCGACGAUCAGUCCUGUGCUACACAUCGUAUGUACCGAAUCGGGGUGGGGAAAAAAAGGGGAGGGGAAAGUAUUAUGUUACGCCGUUCGGAUCUGCACUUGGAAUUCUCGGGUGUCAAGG | 0.151
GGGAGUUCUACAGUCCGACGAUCAGUCCUGUGCUACACAUCGUAUGUACCGAAUCGGGGAAAAAGGGGAAAGGGGAGGGGAAAGUAUUAUGUUACGCCGUUCGGAUCUGCACUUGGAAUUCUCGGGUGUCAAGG | -0.046

Sample 5
Target: CCNB3, cyclin fold, Cln2 fusion (human)
Technique: yeast growth competition, sequencing
Medium: yeast
Notes: weak parent motif
Baseline: not given
Reading: higher = stronger binding
Starting sequence: PKMYT1 docking peptide (human); SFEPRNLLSLFED
Variant | normalised enrichment score
E3L | 0.263
F11N | -0.016
E3M | 0.387
L8V | -0.334
E3N | 0.428
D13I | 0.843
E3A | 0.258
R5E | 0.789
F11G | 0.129
L8M | 0.332
E12K | 0.194

Sample 6
Target: RNA binding protein fox-1 homolog 2, RRM domain, GST-SBP tag (RBFOX2, Homo sapiens, UniProt O43251-10, residues 100-194)
Technique: RNA Bind-n-Seq
Molecule type: RNA
Medium: in vitro
Tested at: 365 nM
Notes: natural RNA segment, single round, ends assumed
Baseline: no-protein control
Reading: higher = stronger binding
Construct (chain): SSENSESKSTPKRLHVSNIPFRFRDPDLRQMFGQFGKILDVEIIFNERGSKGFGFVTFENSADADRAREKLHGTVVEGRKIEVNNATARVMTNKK
Oligonucleotide | RBNS enrichment (R)
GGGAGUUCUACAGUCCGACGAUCAUACCAGUAUUUCCAUAACAGAGAAUGGUGAGCCCUAUGAUGCUGAAGGGAUUCCAUCUCUCCAUCUCCCAGUUUAUCAUUGUGGUCCAAUUACAUAGUCAGCUACAUAAUGGAAUUCUCGGGUGCCAA | 0.502
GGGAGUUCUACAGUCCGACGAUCAAAUAUGCUAGGUGGUCUUCAAGACCUUUUUGAACCUACAGAUUCUAAACCUUAGAGGAAGCCAGAAUAUGUGAUCAUACCAGGUGAGGAAAGUUAGGAGAUAUUCAUCUUGGAAUUCUCGGGUGCCAA | 0.395
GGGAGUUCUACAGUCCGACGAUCAUUAGUGAAUAUAGUUUGGAGUUUGGCUUCGUGUCCUGGGUUCUUCCCCGUCCCUUUUCUGUCAGCCCAUCACAGCCACCUGCUCUGCUCAGACAGCCAGGCACCAGAAGUGGAAUUCUCGGGUGCCAA | 0.551
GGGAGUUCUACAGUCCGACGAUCCCAACACAGACACCCAAGCAGAGCAAUCAGUUAGUGAAUUGAAUGGAAAUAAACGCUUUAGUUAUAAUAUGACCCCUGUUCUCUGUAAGUUCCAAGGGAGACCUUGGUACUGGAAUUCUCGGGUGCCAA | 0.625
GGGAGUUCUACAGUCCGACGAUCACUCUUGGGGGCCAAUCCCACUCUUGAGUGCAAUGGUUGCAUUUAGAAUCAGCUAGCUAGCCAGGGGCCAUCCUGUGGGUCAGUAGAUGAGGUGUGUCCUGGCCCUGCGGUGGAAUUCUCGGGUGCCAA | 0.569
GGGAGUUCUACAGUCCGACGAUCUUAUCAUUGCUUAACUUCAUCUUAAUGAAAUGAAACUUUGUAACUUAUUGUAGUUAGAAAUUGUAACUUUGAUAUCGAAUCUCUUGCCUUCAACAAGCACACUGACAGAGUGGAAUUCUCGGGUGCCAA | 0.255
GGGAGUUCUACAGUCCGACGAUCGUGUGCUGAUGUUUCCUGGGUGCCCUGGCUCCUUGCAGCAGGGCUGGGCCUGCGAGACCCAAGGCUCACUGCAGCGCGCUCCUGACCCCUCCCUGCAGGGGCUACGUUAGUGGAAUUCUCGGGUGCCAA | 0.285

Sample 7
Target: Hepatocyte nuclear factor 3-beta, forkhead domain (FOXA2, Homo sapiens, UniProt Q9Y261, residues 142-269)
Technique: protein-binding microarray
Molecule type: double-stranded DNA, one strand shown
Medium: in vitro
Tested at: not given
Notes: k-mer, scored over probes, only values ≥0.25
Reading: higher = stronger binding
Construct (chain): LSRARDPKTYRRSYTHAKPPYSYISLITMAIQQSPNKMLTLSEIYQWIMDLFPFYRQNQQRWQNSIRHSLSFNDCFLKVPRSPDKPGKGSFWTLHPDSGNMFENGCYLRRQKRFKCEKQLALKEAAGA
Oligonucleotide | E-score
ATGGTATC | 0.273
GTTGTGTA | 0.289
ATAAATTA | 0.352
ATTAATAA | 0.275
ATTGAATA | 0.343
TGAATACA | 0.268
ACAAATCC | 0.271
GTATGCAC | 0.276
ACATTTAA | 0.316
ATATGGTA | 0.367
CAAGACAA | 0.255

Some of these lines once more (sample 3):
Oligonucleotide | fitted relative affinity
GACGGTTTCGGTATCAGGACGTGCTAG | 8.25 z-score
TTAGAACTCGGGTTTCGATTAGTGCTA | 1.53 z-score
TTAGGTTTCCTTATCCGTTAGTGCTAG | 7.83 z-score
TCACCTTAGGTTTTCTGACTGTGCTAG | 0.575 z-score
TTTCAGCTGTTTTTCTCACCGTGCTAG | 1.63 z-score
TTAAGTTTCGACTTTCGGTTAGTGCTA | 4.46 z-score
TGAGATTTCAGTTTCGATTAGTGCTAG | 5.82 z-score
